Earlier results, collected from citations in different studies.
Each line is one published result; not all experiments were run side by side. Numbers after ± are the reported error.

The mean growth of `O=C1c2ccccc2-c2c1c1ccccc1c(=O)n2C[C@@H](O)[C@@H](O)[C@H](O)[C@H](O)CO` is reported as 69.3% (60 cancer cell lines; cell growth; 10 µM).
`CCn1cc(-c2cc(Cn3ccnc3)cc3c2CCN([C@H](c2cc(OC)ccn2)C2CC2)C3=O)c(C(F)(F)F)n1` has a GI50 of 0.037 ± 0.0081 µM (MOLM-13; cell proliferation).
`Oc1cccc(-c2cccc(O)n2)n1.[Cl-].[Cl-].[Ru+2].c1cnc2c(c1)ccc1cccnc12.c1cnc2c(c1)ccc1cccnc12` gave a phototoxicity index of 2.8 (MCF7; baseline: dark IC50 over light IC50).
`C[C@@H](Nc1c(-c2c(F)cc(C#CCCN)cc2F)c(Cl)nc2ncnn12)C(C)(C)C` — result for “total α-tubulin level”: 0.91 ± 0.12 (HEK293; 10 µM, 4 h, unit not given; baseline: vehicle (DMSO)).
The EC50 of `O=C1NCCN1CC(O)Cn1c2ccc(F)cc2c2cc(F)ccc21` (centres unmarked) is reported as 15 µM (sample B glioblastoma stem cells; viability).
`C[C@H](Nc1c(-c2c(F)cc(OCCCN)cc2F)c(Cl)nc2ncnn12)C(F)(F)F`: “total α-tubulin level” 0.77 ± 0.09 (HEK293; 10 µM, 4 h, unit not given; baseline: vehicle (DMSO)).
`Oc1cccc(-c2cccc(O)n2)n1.[Cl-].[Cl-].[Ru+2].c1cnc2c(c1)c1c(c3cccnc32)OCCO1.c1cnc2c(c1)c1c(c3cccnc32)OCCO1` has a phototoxicity index of 120 (MCF7; baseline: dark IC50 over light IC50).
With `O=C1c2ccccc2-c2c1c1ccccc1c(=O)n2C[C@H](O)[C@@H](O)[C@H](O)CO` the mean growth was 34.9% (60 cancer cell lines; cell growth; 10 µM).

Repeated from above:
`C[C@H](Nc1c(-c2c(F)cc(OCCCN)cc2F)c(Cl)nc2ncnn12)C(F)(F)F`: “total α-tubulin level” 0.77 ± 0.09 (HEK293; 10 µM, 4 h, unit not given; baseline: vehicle (DMSO)).
